Experimental data gathered from unrelated publications.
Each line is one published result; not all experiments were run side by side. Values joined by “and” are separate records of one study, mostly repeats; a detail may differ. ± gives the spread as reported.
NR3C1: Glucocorticoid receptor (NR3C1, Homo sapiens, UniProt P04150)

The chains behind the UniProt entries cited, without tags or fusion partners.
UniProt P04150, whole entry: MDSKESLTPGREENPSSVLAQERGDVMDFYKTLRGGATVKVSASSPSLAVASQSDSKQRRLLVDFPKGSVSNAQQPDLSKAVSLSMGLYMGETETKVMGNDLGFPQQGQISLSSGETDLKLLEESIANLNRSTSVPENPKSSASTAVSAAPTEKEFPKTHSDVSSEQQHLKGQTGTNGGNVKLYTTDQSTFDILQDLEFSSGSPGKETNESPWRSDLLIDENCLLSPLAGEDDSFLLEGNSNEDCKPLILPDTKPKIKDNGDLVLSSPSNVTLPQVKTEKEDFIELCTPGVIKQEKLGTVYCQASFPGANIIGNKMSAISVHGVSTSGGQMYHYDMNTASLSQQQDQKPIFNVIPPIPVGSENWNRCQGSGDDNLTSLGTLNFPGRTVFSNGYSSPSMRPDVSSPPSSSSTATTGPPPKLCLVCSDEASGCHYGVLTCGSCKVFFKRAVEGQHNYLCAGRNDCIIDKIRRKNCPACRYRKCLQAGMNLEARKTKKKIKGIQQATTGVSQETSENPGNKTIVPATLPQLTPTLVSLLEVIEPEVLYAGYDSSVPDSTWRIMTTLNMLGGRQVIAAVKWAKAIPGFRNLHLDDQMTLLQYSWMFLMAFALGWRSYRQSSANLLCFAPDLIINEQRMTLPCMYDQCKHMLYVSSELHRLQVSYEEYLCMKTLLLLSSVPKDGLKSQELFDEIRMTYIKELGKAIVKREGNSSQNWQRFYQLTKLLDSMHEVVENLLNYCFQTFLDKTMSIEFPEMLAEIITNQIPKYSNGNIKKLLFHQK
UniProt P10636, whole entry, looked up: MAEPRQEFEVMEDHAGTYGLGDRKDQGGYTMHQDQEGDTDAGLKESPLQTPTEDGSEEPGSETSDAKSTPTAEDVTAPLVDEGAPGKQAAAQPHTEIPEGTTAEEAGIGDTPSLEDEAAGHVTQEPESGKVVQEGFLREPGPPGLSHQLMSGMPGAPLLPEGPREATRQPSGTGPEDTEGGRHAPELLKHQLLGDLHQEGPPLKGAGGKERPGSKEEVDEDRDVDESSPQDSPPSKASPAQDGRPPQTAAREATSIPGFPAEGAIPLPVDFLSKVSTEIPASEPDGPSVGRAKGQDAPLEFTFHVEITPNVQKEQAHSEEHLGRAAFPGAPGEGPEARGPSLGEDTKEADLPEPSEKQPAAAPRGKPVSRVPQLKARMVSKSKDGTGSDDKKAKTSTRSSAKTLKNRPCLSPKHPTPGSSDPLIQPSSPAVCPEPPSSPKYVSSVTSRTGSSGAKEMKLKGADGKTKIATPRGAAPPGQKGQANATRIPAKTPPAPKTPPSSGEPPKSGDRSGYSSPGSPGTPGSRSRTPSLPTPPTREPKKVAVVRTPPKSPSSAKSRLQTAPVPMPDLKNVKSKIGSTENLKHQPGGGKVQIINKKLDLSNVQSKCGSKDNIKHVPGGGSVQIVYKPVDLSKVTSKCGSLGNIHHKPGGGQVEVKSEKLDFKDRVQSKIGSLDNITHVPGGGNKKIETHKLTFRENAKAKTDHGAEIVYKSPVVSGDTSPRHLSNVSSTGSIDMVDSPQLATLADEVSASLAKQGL
UniProt Q14004, whole entry: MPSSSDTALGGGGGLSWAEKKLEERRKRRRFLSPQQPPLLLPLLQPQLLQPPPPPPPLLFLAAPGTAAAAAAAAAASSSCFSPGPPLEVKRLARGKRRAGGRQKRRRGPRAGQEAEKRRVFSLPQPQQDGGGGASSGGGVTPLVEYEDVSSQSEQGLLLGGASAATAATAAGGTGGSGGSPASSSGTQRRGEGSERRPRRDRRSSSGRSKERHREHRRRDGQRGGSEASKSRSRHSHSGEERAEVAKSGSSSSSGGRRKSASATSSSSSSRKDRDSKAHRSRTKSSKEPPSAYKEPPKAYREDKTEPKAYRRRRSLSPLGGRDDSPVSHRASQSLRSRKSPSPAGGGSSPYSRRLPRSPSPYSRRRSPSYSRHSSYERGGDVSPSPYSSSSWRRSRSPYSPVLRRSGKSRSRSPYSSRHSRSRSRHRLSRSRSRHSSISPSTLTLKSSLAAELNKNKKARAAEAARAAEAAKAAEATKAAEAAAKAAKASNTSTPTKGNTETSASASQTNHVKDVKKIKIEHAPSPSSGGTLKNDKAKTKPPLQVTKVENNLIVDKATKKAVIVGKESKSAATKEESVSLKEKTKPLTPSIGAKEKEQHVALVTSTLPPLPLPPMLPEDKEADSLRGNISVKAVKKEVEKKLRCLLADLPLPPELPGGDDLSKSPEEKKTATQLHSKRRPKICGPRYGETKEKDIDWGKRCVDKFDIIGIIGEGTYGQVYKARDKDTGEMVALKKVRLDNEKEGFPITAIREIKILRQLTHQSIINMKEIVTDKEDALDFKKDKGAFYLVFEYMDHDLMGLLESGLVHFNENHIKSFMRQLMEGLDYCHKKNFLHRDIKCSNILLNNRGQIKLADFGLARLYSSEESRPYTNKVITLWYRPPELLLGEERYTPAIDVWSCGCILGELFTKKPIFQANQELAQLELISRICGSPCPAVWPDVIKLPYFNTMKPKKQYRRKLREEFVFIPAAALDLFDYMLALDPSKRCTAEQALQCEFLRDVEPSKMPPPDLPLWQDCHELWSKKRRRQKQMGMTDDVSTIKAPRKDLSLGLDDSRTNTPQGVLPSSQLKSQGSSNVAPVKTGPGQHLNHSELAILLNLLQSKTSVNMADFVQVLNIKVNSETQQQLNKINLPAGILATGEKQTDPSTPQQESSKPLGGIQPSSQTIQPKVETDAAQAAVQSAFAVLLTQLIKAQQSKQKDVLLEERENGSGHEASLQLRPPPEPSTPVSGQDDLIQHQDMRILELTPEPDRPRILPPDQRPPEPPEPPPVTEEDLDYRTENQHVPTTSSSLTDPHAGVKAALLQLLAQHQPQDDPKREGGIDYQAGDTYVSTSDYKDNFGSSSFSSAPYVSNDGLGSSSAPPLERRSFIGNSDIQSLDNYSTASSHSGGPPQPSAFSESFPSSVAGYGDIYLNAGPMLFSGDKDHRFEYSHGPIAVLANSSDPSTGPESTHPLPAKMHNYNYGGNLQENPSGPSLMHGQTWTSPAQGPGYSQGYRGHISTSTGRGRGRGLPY
UniProt Q15059, whole entry, looked up: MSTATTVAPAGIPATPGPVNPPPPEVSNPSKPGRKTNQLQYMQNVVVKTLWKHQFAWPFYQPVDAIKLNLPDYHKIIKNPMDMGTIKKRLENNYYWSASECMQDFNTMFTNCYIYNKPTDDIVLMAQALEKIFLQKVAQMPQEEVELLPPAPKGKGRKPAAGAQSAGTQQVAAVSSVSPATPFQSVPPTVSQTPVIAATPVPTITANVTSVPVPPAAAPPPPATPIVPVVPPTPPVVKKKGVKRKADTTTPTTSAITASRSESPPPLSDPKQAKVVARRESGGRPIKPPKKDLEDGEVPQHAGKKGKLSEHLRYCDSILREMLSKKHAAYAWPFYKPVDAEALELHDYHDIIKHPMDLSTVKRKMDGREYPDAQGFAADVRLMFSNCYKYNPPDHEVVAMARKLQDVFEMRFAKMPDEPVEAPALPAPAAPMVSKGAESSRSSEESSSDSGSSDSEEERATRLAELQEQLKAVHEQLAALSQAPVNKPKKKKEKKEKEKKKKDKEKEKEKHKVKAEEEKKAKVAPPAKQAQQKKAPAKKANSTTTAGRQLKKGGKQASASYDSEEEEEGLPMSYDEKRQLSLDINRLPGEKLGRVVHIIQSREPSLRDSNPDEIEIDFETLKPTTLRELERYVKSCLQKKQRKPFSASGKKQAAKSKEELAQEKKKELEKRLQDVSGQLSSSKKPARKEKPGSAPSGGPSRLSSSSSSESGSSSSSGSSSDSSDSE

O=c1/c(=C/c2ccc(-c3ccccc3[N+](=O)[O-])o2)sc2nc3cc(Br)cnc3n12
phospho-ERK1/2 level (Jurkat TAg T cells; TCR signalling, immunoblot; 40 µM, 45 min preincubation, added: OKT3 5 min; baseline: DMSO): increased

Fc1cc(-c2ccc3c(n2)[nH]c2ccncc23)ccn1 [isotope labelled]
specific binding (Microtubule-associated protein tau, paired helical filaments (MAPT, Homo sapiens, UniProt P10636); radioligand binding; PHF tau brain homogenate; 37.19 nM; higher = more binding): 15.5 a.u.

O=C(Nc1cccnn1)N1CC(Oc2ccc(-c3ccccc3F)cn2)C1
time to return to baseline (item: plasma endocannabinoids; human, plasma; oral, after day 7 dose, repeated daily dosing): ≤ 72 h

Cc1cccc(NC(=O)c2nn(Cc3cnc[nH]3)c3c2CN(C(=O)c2ccc[nH]2)CC3)c1
leukemic blast fraction (IDH1 R132G AML cells; CD45/SSC flow cytometry; 3 µM, 7 days; baseline: DMSO): 1 ± 0.04 fold

CC1C=CC(C)N1C(=O)CON=C1C=CCCC=CCCOC(=O)c2c(O)cc(O)cc2C1 (stereo not drawn)
EC50 (SK-BR-3; Her-2 depletion, item: Her-2; overnight): ≤ 1000 nM

CC(=O)[C@H]1CC[C@@H]2[C@]1(C)CC=C1[C@@]23C=C[C@]2(C[C@H](O)CC[C@@]12C)[C@H](C(=O)O)[C@@H]3C(=O)O
EC50 (NR3C1; nuclear translocation, agonist, enzyme fragment complementation): > 9000 nM

C[C@H]1CCCN1Cc1cc2cnc(NC(=O)c3ccc4c(cnn4C)c3)cc2[nH]1
lowest effective concentration (MV4;11; mRNA decrease, RT-qPCR, item: MYC, HOXA9/10, MYB; 72 h): 0.1 µM

O=c1/c(=C/c2ccc(-c3cc(Cl)cc(Cl)c3)o2)sc2nc3cc(Br)cnc3n12
phospho-p38 level (Jurkat TAg T cells; TCR signalling, immunoblot; 40 µM, 45 min preincubation, added: OKT3 5 min; baseline: DMSO): increased

CN(C)S(=O)(=O)c1cccc(-n2sc3ccccc3c2=O)c1
mineralization (mouse vascular smooth muscle cells; Alizarin Red staining; 30 µM, 21 days, added: beta-glycerophosphate; baseline: vehicle): 53.8 ± 4.1%

CCCC1CC=CCCC(C)=CC(=NOCC(=O)N(CC)CC)Cc2c(Cl)c(O)cc(O)c2C(=O)O1 (stereo not drawn)
EC50 (SK-BR-3; Her-2 depletion, item: Her-2; overnight): > 10000 nM

Fc1cccc(-n2cnc3c(NCc4nc5cc(Cl)ccc5[nH]4)nc(N4CCNCC4)nc32)c1
remaining binding (CDK13 (Homo sapiens, UniProt Q14004); KINOMEscan competition binding; 10 µM; baseline: control): 88%

COc1cc(N2CCN(C)CC2)ccc1Nc1ncc2c(n1)N(C)c1ccccc1C(=O)N2
ACK1 autophosphorylation (HEK293; inhibitor; 2 µM): inhibited

Nc1c(C(=O)Nc2c(F)cc(F)cc2Br)sc2nc3c(cc12)CCC3
total SOD activity (H1299; concentration not given, 12 h): increased

c1ccc2[nH]c3c(N=NC4=NCCN4)c4ccccc4c-3nc2c1
IC50 (MDA-MB-468; cytotoxicity, MTT; 96 h): 0.3 ± 0.18 µM

Cc1cc(C)c(CNC(=O)c2cc(-c3ccc(N4CCN(CCNC(=O)CC56CC7CC(CC(C7)C5)C6)CC4)nc3)cc3c2cnn3C(C)C)c(=O)[nH]1
H3K27me3 level (MDA-MB-468; western blot; concentration not given): decreased

Cc1[nH]c2ccccc2c1CCNC(=O)c1ccc(-c2nn[nH]n2)cc1
mRNA level (BV2 cells expressing human EP2; antagonist, qRT-PCR, item: human EP2; 0.3 to 1 µM, 1 h pretreatment, added: LPS 100 ng/mL 2 h, ONO-AE1-259-01 30 nM; baseline: vehicle): no effect

CCN1CCN(Cc2ccc(Nc3ncc4c(n3)N(C)c3c(C)cccc3C(=O)N4C)cc2C(F)(F)F)CC1
EC50 (HT-29; cell growth, CellTiter-Glo; 96 h): 911 nM

CC1CCN(C(=O)CON=C2C=CCCC=CCCOC(=O)c3c(O)cc(O)cc3C2)CC1
EC50 (SK-BR-3; Her-2 depletion, item: Her-2; overnight): ≤ 500 nM

CC(=O)[C@]1(O)CC[C@@H]2[C@H]3C[C@@H](C)C4=CC(=O)CC[C@@]4(C)[C@H]3[C@@H](O)C[C@]21C
EC50 (NR3C1; nuclear translocation, agonist, enzyme fragment complementation): 23.6 nM

CC[C@@H]1C(=O)N(C)c2cnc(Nc3ccc(C(=O)NC4CCN(C)CC4)cc3OC)nc2N1C1CCCC1
delta Tm (Bromodomain-containing protein 3, BD2 (BRD3, Homo sapiens, UniProt Q15059); 10 µM): 5 ± 0.3 °C

CCCCCCCCCCCCCC=C[C@@H](O)[C@H](CO[C@@H]1O[C@H](CO)[C@@H](O[C@@H]2O[C@H](CO)[C@H](O)[C@H](O[C@]3(C(=O)O)C[C@H](O)[C@@H](NC(C)=O)[C@H]([C@H](O)[C@@H](CO)O[C@]4(C(=O)O)C[C@H](O)[C@@H](NC(C)=O)[C@H]([C@H](O)[C@H](O)CO)O4)O3)[C@H]2O)[C@H](O)[C@H]1O)NC(=O)CCCCCCCCCCCCCCCCC
cytokine production (primary human NKT cells; APCs pretreated with compound, added: α-GalCer): decreased

CN1C(=O)c2ccccc2N(C)c2nc(Nc3ccc(N4CCC(O)CC4)cc3)ncc21
EC50 (HT-29; cell growth, CellTiter-Glo; 96 h): 55 nM

CC1/C=C/CCCOC(=O)c2c(O)cc(O)cc2CC(=NOCC(=O)N2CCCCC2)/C=C/C1 (racemic)
EC50 (SK-BR-3; Her-2 depletion, item: Her-2; overnight): ≤ 5000 nM

CC(C)c1cc2c(N3CCN(C4=NCC(C)(C)S4)CC3)ncnc2s1
GI50 (E2A-HLF transduced mouse BMC; cell growth, MTT): > 50 µM

C[C@]12CC[C@H](O)CC1=CC[C@@H]1[C@@H]2CC[C@]2(C)C(n3ccnn3)=CC[C@@H]12
IC50 (LNCaP; cell proliferation, XTT; 7 days, added: DHT 1 nM): 4.8 µM and 3.7 µM

CCCN(CCC)C(=O)CON=C1C=CCCC=CCCOC(=O)c2c(O)cc(O)cc2C1
EC50 (SK-BR-3; Her-2 depletion, item: Her-2; overnight): ≤ 1000 nM

NC(=O)c1ccc(-n2cccc2Cc2ccccc2O)cc1N[C@H]1CC[C@H](O)CC1
protein level (HEK cells expressing I477N myocilin; Western blot, item: I477N myocilin; 30 µM, 24 h): decreased

O=C1CCC(N2C(=O)c3cccc(NCCOCCOCCOCCN4CCN(c5ccc(-c6ccc7c(c6)C(=O)N(C(C(=O)Nc6nccs6)c6ccccc6)C7)cn5)CC4)c3C2=O)C(=O)N1 (stereo not drawn)
EC50 (Ba/F3 EGFR L858R/T790M/C797S; cell proliferation): 41 nM

C[C@]12CCC(=O)C=C1CCC1C2CC[C@]2(C)C(n3cnc4ccccc43)=CCC12 (stereo partly drawn)
IC50 (LNCaP; cell proliferation, XTT; 7 days, added: DHT 1 nM): 1.8 µM

CCN1CCN(Cc2ccc(Nc3ncc4c(n3)N(C)c3c(F)cccc3C(=O)N4C)cc2C(F)(F)F)CC1
EC50 (HT-29; cell growth, CellTiter-Glo; 96 h): 1580 nM

O=C1c2cccc3cc([N+](=O)[O-])cc(c23)C(=O)N1NCCO
IC50 (PC-12; neurite outgrowth; 72 h, added: 500 pM NGF): 2.44 µM

CCN1CCN(Cc2ccc(NC(=O)c3ccc(C)c(Oc4ncnc5cc(OC)c(OC)cc45)c3)cc2C(F)(F)F)CC1
viability (THP-1; CellTiter-Blue; up to 1 µM, 72 h): no effect

O=C1OCCC=CCCC=CC(=NOCC(=O)N(Cc2ccccc2)Cc2ccccc2)Cc2cc(O)cc(O)c21
EC50 (SK-BR-3; Her-2 depletion, item: Her-2; overnight): > 10000 nM

Cc1c(O)cc2c(c1C)O[C@](C)(CCCC(C)C)CC2
IC50 (LNCaP-abl; cell proliferation, MTT): 7 µM

COc1cc(CC(=O)NCC(NC(=O)C(CCCNC(=O)c2cccc(I)c2)NC(=O)C(Cc2ccc(C(F)(F)P(=O)(O)O)cc2)NC(=O)c2ccc(C)c(Br)c2)C(N)=O)ccc1O (stereo not drawn)
IR Tyr1162/1163 phosphorylation increase (primary mouse hepatocytes; Western blot; 50 nM, 1 h, added: insulin 5 nM, 5 min; baseline: DMSO): 50%

Cc1ccc([C@H](CC(=O)O)NC(=O)Nc2c(O)c(C)cn(Cc3ccccc3Cl)c2=O)cc1
tube formation (HUVEC; nodes, segments and meshes; 5 and 25 µM): decreased

Repeated from above:
Fc1cc(-c2ccc3c(n2)[nH]c2ccncc23)ccn1 [isotope labelled]
specific binding (Microtubule-associated protein tau, paired helical filaments (MAPT, Homo sapiens, UniProt P10636); radioligand binding; PHF tau brain homogenate; 37.19 nM; higher = more binding): 15.5 a.u.

Cc1ccc([C@H](CC(=O)O)NC(=O)Nc2c(O)c(C)cn(Cc3ccccc3Cl)c2=O)cc1
tube formation (HUVEC; nodes, segments and meshes; 5 and 25 µM): decreased
